Experimental data of several laboratories.
A part holds a random share of what one study measured.
Sequence of UniProt P23945 (whole entry, looked up): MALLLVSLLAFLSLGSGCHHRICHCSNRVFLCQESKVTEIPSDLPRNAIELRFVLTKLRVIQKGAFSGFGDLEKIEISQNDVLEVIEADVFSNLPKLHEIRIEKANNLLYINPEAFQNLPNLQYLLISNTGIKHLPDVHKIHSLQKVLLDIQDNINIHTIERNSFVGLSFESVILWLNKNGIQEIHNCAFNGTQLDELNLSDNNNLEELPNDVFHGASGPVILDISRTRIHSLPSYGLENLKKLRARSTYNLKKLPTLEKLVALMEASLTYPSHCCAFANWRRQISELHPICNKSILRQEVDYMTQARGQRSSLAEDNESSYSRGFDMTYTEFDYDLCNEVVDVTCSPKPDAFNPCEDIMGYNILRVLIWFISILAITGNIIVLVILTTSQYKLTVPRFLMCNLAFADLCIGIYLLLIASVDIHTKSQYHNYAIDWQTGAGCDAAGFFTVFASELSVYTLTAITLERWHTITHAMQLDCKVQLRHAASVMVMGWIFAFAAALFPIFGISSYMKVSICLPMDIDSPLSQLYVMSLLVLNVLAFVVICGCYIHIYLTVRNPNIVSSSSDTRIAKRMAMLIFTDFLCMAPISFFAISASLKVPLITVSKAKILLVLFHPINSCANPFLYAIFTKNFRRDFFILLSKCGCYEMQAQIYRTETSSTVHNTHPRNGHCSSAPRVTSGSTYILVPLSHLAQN
Sequence of UniProt Q8N4C8 (whole entry, looked up): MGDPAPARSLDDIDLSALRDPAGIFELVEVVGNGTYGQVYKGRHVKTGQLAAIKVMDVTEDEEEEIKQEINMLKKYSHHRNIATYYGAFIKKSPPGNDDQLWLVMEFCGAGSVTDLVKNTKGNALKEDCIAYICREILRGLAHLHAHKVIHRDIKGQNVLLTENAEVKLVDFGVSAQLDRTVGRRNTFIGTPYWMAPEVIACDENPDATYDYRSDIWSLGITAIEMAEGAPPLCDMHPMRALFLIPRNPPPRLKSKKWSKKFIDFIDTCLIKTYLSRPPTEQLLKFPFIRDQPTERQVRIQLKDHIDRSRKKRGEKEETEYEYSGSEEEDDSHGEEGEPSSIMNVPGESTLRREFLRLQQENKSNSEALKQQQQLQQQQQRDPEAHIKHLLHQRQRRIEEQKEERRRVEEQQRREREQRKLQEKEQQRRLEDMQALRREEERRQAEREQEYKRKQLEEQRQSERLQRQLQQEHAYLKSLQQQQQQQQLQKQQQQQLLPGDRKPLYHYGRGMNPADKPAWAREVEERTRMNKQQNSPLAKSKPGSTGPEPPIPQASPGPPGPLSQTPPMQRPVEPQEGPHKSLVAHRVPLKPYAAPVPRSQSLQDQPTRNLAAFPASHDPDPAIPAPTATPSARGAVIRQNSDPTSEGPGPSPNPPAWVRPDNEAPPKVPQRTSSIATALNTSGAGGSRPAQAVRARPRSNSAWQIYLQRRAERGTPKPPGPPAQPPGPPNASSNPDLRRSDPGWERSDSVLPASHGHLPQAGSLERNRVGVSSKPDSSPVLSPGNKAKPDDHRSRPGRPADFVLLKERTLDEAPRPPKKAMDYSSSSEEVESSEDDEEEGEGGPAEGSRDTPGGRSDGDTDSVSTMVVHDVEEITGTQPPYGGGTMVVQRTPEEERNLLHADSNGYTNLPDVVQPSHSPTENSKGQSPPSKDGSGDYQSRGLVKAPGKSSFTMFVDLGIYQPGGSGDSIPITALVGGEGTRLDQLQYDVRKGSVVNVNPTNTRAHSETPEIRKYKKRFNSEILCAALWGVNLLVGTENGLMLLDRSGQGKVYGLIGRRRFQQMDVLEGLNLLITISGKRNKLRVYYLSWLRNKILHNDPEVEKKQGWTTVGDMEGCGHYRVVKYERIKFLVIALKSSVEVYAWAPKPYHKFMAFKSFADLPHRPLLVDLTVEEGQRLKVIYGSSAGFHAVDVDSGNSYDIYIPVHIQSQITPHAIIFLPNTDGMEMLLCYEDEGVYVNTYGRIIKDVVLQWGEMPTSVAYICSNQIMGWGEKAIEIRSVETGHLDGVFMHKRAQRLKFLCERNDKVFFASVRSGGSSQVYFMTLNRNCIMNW
Sequence of UniProt P49336 (whole entry, looked up): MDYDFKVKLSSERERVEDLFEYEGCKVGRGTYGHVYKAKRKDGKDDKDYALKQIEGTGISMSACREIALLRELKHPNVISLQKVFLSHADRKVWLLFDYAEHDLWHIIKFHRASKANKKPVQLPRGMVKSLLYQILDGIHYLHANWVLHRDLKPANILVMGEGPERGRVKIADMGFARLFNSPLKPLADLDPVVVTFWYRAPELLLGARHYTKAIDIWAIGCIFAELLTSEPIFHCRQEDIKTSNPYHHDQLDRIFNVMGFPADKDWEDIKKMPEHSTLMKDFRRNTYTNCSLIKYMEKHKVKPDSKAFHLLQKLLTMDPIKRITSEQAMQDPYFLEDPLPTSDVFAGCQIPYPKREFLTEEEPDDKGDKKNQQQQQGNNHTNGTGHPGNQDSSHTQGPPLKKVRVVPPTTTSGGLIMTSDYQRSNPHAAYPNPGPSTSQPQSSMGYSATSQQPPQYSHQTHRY
Sequence of UniProt P41143 (whole entry, looked up): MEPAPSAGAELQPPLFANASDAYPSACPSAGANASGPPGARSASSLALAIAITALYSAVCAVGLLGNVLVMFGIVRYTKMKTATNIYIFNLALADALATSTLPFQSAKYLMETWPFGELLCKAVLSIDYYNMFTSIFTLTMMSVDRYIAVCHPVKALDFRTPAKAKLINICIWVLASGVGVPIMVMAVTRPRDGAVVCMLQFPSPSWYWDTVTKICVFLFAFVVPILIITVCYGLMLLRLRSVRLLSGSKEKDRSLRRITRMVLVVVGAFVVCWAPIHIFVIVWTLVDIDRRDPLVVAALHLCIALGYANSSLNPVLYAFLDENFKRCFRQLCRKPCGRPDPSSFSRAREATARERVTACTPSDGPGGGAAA
Sequence of UniProt P53778 (whole entry, looked up): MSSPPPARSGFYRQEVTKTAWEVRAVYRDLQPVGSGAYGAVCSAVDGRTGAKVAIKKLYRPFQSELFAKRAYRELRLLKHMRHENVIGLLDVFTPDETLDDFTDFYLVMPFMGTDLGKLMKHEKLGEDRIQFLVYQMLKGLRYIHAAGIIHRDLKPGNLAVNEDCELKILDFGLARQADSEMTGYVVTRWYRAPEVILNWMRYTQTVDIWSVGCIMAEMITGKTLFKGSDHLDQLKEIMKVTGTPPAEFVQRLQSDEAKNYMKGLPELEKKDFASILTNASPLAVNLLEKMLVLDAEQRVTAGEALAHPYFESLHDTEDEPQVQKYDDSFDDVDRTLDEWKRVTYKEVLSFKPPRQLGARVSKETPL

Study 1
Compound: NC(N)=NC(=O)c1nc(Cl)c(N2CCCCCC2)nc1N
Observed: β-arrestin recruitment
Action: agonist
Technique: PRESTO-Tango
Concentration: 10 µM
Relative to: untreated
target	fold over basal
Trace amine-associated receptor 9 (TAAR9, Homo sapiens, UniProt Q96RI9)	0.57 fold
Gonadotropin-releasing hormone receptor (GNRHR, Homo sapiens, UniProt P30968)	0.6 fold
GPR101 (Homo sapiens, UniProt Q96P66)	1.13
Neuropeptide Y receptor type 4 (NPY4R, Homo sapiens, UniProt P50391)	1.09
Adhesion G-protein coupled receptor D1 (ADGRD1, Homo sapiens, UniProt Q6QNK2)	1.82
Glucagon receptor (GCGR, Homo sapiens, UniProt P47871)	0.84 fold
Delta-type opioid receptor (OPRD1, Homo sapiens, UniProt P41143)	5.77
Probable G-protein coupled receptor 173 (GPR173, Homo sapiens, UniProt Q9NS66)	0.94
Relaxin-3 receptor 2 (RXFP4, Homo sapiens, UniProt Q8TDU9)	1.36
Follicle-stimulating hormone receptor (FSHR, Homo sapiens, UniProt P23945)	0.96 fold
5-hydroxytryptamine receptor 5A (HTR5A, Homo sapiens, UniProt P47898)	1.25
D(2) dopamine receptor (DRD2, Homo sapiens, UniProt P14416)	1.19
G-protein coupled receptor family C group 5 member B (GPRC5B, Homo sapiens, UniProt Q9NZH0)	0.88

Study 2
Compound: CC1=C(C#N)[C@@H](c2ccc3[nH]nc(C)c3c2)C(C#N)=C(c2ccc(Cl)cc2)N1
Observed: cell-free assay
Technique: competition with immobilised ligand
Concentration: 1 µM
target	remaining binding [%]
Microtubule-associated serine/threonine-protein kinase 1 (MAST1, Homo sapiens, UniProt Q9Y2H9)	100
Serine/threonine-protein kinase D1 (PRKD1, Homo sapiens, UniProt Q15139)	81.1
3-phosphoinositide-dependent protein kinase 1 (PDPK1, Homo sapiens, UniProt O15530)	98.2
Cyclin-dependent kinase 8 (CDK8, Homo sapiens, UniProt P49336)	93.2
Phosphatidylinositol 4,5-bisphosphate 3-kinase catalytic subunit alpha isoform (PIK3CA, Homo sapiens, UniProt P42336)	100
Mitogen-activated protein kinase 15 (MAPK15, Homo sapiens, UniProt Q8TD08)	100
Tyrosine-protein kinase Fyn (FYN, Homo sapiens, UniProt P06241)	69
Proto-oncogene tyrosine-protein kinase receptor Ret (RET, Homo sapiens, UniProt P07949)	100
Mitogen-activated protein kinase 12 (MAPK12, Homo sapiens, UniProt P53778)	58.6
Tyrosine-protein kinase receptor Tie-1 (TIE1, Homo sapiens, UniProt P35590)	76.4
Serine/threonine-protein kinase TAO2 (TAOK2, Homo sapiens, UniProt Q9UL54)	100
Tyrosine-protein kinase BTK (BTK, Homo sapiens, UniProt Q06187)	99.9
Phosphorylase b kinase gamma catalytic chain, skeletal muscle/heart isoform (PHKG1, Homo sapiens, UniProt Q16816)	100
High affinity nerve growth factor receptor (NTRK1, Homo sapiens, UniProt P04629)	84.6
Serine/threonine-protein kinase SIK3 (SIK3, Homo sapiens, UniProt Q9Y2K2)	100
Cyclin-dependent kinase 3 (CDK3, Homo sapiens, UniProt Q00526)	100
Mitogen-activated protein kinase kinase kinase kinase 4 (MAP4K4, Homo sapiens, UniProt O95819)	100
Interleukin-1 receptor-associated kinase 4 (IRAK4, Homo sapiens, UniProt Q9NWZ3)	100
Misshapen-like kinase 1 (MINK1, Homo sapiens, UniProt Q8N4C8)	77
Rhodopsin kinase GRK7 (GRK7, Homo sapiens, UniProt Q8WTQ7)	100
Mitogen-activated protein kinase kinase kinase 9 (MAP3K9, Homo sapiens, UniProt P80192)	90.4
Mitogen-activated protein kinase kinase kinase 10 (MAP3K10, Homo sapiens, UniProt Q02779)	100
Serine/threonine-protein kinase mTOR (MTOR, Homo sapiens, UniProt P42345)	79.6
Epidermal growth factor receptor (EGFR, Homo sapiens, UniProt P00533)	100
Tyrosine-protein kinase ABL1, phosphorylated (ABL1, Homo sapiens, UniProt P00519, T315I)	88.1

Study 3
SMILES: CC(C)S(=O)(=O)c1ccc2nccc(Nc3ccc4sc(C5CCCC5)nc4c3)c2c1
Target: Receptor-interacting serine/threonine-protein kinase 3 (RIPK3, Homo sapiens, UniProt Q9Y572)
Sequence of UniProt Q9Y572 (whole entry, looked up): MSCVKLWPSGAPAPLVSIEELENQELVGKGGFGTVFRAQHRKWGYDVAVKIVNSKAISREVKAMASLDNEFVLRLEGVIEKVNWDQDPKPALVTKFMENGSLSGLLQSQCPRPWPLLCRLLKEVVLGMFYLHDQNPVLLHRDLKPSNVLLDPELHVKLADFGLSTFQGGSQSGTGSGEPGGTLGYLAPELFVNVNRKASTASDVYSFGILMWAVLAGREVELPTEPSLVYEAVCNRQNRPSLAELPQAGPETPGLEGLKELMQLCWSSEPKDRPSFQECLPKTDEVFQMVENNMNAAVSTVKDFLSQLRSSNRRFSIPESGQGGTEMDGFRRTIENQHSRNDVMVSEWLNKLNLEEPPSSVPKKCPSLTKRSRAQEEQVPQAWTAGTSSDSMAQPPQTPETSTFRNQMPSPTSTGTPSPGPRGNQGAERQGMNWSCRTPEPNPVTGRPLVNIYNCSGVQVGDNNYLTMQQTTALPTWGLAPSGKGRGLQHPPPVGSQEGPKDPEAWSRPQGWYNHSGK
Observed: kinase activity
Action: inhibitor
Technique: ADP-Glo
Time: 1 h
concentration	inhibition [%]
3.704 nM	57.6
11.11 nM	82.4
300 nM	102
0.412 nM	38.5
33.33 nM	83.6

Study 4
Target: Protein kinase C zeta type (PRKCZ, Homo sapiens, UniProt Q05513)
Observed: enzyme activity
Action: inhibitor
Concentration: 0.5 µM
Relative to: control
Target sequence (Q05513 1-592): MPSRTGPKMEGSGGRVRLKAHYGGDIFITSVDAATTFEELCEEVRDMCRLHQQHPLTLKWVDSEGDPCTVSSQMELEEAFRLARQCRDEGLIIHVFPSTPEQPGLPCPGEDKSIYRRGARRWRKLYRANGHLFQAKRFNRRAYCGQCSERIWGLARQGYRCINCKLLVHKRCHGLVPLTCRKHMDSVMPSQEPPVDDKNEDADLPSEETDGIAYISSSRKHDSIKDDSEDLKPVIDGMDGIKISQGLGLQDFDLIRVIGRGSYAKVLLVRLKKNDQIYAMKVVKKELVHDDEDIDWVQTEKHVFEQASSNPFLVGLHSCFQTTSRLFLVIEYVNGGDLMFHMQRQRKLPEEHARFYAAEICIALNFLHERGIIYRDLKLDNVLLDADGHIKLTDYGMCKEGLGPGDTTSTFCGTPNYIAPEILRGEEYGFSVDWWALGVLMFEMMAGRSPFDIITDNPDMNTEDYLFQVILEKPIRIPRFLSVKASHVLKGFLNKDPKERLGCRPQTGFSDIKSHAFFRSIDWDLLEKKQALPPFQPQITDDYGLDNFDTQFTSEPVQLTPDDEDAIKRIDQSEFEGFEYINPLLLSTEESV
Compound	remaining activity [%]
O=C1NC(=O)/C(=C/c2ccc3c(c2)OC(F)(F)O3)S1	103
O=C(c1ccccc1)c1ccc(N2CCOCC2)cc1O	85
C[C@@H](N)[C@H]1CC[C@H](C(=O)Nc2ccncc2)CC1	99.2
N#C/C(=C(/N)SC1C=CC=CC1)c1cccc(C(O)c2ccncc2)c1 (stereo not drawn)	102
O=c1c(-c2ccc(F)cc2)c(-c2ccncc2)[nH]n1-c1ccc(Cl)cc1	99
CCN(CC)CCCCN1c2ccccc2Oc2ccc(Cl)cc21	105
FC(F)(F)c1ccc(/C=C/c2nc(COc3ccc(CCCCn4ccnn4)cc3)co2)cc1	101
CNc1cc2c(Nc3cccc(Br)c3)ncnc2cn1	98.6
c1cc(-c2cnn3cc(-c4ccc(OCCN5CCCCC5)cc4)cnc23)ccn1	101
N#CC(c1ccnc(NCCc2cccnc2)n1)c1nc2ccccc2s1 (stereo not drawn)	102
O=C1c2ccccc2-c2nc3nnnn3nc21	99.1
O=C(O)/C=C/c1cc(Br)c(Br)c(Br)c1Br	89.2
CCCCc1c(-c2ccc(O)cc2)[nH]c2nccnc12	97.4
NC(=O)c1ccc(-c2nc(-c3ccc4c(c3)OCCO4)c(-c3ccccn3)[nH]2)cc1	104
CC(C)N(CCC(=O)c1ccc2ccccc2c1)Cc1ccccc1	100
Clc1ccc(Nc2nnc(Cc3ccncc3)c3ccccc23)cc1	69.5
CC(C)n1cnc2c(Nc3cccc(Cl)c3)nc(NCCO)nc21	97.8
COc1cc2c(N3CCN(C(=O)Nc4ccc(OC(C)C)cc4)CC3)ncnc2cc1OCCCN1CCCCC1	103
COc1cc2c(Nc3ccc(Br)cc3F)ncnc2cc1OCC1CCN(C)CC1	97.8
CC(C)(C)c1nc2c3cc[nH]c(=O)c3c3cc(F)ccc3c2[nH]1	93.2
NC(=O)c1cccc(-c2cc(Nc3ccc(OC(F)(F)F)cc3)ncn2)c1	100
Nc1nc(Nc2ccc(S(N)(=O)=O)cc2)nn1C(=S)Nc1c(F)cccc1F	83.7
O=Nc1c(-c2c(O)[nH]c3ccccc23)[nH]c2ccccc12	95.2
